Assay results from different studies.
Each line is one published result; not all experiments were run side by side. ± gives the spread as reported.
cas9: CRISPR-associated endonuclease Cas9/Csn1 (cas9, Streptococcus pyogenes serotype M1, UniProt Q99ZW2)
Sequence of UniProt Q99ZW2 (whole entry, looked up): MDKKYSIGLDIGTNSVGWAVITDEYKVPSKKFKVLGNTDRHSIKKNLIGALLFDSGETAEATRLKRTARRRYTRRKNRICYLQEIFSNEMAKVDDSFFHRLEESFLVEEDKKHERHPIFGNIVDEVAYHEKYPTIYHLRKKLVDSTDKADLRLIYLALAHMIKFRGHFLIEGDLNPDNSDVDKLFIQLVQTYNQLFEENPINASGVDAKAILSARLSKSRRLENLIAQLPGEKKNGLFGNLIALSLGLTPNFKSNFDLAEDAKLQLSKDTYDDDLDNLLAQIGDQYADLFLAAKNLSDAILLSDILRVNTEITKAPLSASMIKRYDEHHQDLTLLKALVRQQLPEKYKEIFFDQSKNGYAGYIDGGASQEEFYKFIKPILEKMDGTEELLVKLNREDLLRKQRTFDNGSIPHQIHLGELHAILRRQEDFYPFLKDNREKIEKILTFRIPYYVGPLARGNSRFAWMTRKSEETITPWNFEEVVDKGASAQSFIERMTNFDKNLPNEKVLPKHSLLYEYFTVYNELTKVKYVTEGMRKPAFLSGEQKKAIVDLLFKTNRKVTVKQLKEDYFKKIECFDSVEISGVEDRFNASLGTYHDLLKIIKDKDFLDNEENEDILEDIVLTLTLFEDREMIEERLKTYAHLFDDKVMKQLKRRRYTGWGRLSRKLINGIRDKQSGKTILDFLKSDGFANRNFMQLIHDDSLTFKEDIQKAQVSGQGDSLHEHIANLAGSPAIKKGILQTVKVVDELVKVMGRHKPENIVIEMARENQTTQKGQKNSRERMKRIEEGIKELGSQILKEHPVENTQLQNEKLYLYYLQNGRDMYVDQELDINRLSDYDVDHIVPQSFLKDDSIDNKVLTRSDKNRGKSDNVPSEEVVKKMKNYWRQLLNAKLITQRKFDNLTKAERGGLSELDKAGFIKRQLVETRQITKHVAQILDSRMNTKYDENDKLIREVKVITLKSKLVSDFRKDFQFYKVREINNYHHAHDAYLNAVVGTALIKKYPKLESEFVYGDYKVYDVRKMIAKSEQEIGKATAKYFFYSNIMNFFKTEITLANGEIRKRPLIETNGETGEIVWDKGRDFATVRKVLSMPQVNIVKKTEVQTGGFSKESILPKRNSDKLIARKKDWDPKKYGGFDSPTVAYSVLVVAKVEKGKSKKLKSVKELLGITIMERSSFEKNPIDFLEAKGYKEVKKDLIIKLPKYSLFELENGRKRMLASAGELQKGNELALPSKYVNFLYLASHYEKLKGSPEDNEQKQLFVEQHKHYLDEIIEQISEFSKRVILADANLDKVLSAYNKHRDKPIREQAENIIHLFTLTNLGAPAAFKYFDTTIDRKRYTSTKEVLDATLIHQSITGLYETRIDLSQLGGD
ACHE: Acetylcholinesterase (ACHE, Homo sapiens, UniProt P22303)
Sequence of UniProt P22303 (whole entry, looked up): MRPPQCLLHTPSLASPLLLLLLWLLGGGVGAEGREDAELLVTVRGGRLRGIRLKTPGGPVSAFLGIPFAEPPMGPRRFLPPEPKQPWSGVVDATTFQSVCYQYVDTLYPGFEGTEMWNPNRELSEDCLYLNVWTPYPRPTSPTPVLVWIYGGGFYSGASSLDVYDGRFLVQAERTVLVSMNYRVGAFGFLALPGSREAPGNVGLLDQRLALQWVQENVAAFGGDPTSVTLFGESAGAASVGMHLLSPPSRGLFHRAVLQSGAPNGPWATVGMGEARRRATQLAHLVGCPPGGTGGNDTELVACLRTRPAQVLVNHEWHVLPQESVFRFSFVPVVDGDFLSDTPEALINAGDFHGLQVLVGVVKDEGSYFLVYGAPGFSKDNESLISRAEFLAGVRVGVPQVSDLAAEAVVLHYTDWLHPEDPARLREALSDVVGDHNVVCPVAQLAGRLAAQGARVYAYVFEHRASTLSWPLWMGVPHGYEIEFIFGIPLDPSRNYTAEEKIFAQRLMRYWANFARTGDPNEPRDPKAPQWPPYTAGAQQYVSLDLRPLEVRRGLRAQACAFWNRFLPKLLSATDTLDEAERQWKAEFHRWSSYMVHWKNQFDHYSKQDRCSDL
HLA class I histocompatibility antigen, B alpha chain allele B*18:01: HLA class I histocompatibility antigen, B alpha chain, allele B*18:01 (Homo sapiens, UniProt P01889)
Sequence of UniProt P31645 (whole entry, looked up): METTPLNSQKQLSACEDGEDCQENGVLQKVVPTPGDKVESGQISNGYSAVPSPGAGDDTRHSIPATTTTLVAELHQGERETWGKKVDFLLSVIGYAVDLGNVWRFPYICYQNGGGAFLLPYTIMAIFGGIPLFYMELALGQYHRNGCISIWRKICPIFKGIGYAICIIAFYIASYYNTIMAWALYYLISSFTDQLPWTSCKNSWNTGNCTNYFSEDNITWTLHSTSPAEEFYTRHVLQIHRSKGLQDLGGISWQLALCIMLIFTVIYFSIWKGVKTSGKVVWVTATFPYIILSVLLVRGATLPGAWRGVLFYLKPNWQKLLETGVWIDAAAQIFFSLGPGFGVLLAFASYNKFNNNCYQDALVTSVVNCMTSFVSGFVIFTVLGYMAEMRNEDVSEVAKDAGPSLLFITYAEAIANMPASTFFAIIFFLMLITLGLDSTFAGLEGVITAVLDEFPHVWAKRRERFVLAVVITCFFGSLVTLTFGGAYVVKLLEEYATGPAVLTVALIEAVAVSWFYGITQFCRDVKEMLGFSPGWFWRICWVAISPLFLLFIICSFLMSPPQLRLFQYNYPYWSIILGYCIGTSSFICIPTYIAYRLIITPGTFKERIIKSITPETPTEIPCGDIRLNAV
Sequence of UniProt P41143 (whole entry, looked up): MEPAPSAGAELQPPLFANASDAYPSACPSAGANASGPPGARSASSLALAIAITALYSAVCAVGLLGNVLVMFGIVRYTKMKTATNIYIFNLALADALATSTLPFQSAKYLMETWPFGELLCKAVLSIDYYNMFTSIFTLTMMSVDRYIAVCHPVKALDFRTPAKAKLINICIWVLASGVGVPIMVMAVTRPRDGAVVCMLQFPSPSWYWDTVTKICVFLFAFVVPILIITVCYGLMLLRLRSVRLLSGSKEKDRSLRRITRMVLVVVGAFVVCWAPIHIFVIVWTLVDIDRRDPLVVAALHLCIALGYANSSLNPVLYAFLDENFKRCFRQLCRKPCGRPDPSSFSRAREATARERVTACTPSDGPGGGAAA
Sequence of UniProt P10226 (whole entry, looked up): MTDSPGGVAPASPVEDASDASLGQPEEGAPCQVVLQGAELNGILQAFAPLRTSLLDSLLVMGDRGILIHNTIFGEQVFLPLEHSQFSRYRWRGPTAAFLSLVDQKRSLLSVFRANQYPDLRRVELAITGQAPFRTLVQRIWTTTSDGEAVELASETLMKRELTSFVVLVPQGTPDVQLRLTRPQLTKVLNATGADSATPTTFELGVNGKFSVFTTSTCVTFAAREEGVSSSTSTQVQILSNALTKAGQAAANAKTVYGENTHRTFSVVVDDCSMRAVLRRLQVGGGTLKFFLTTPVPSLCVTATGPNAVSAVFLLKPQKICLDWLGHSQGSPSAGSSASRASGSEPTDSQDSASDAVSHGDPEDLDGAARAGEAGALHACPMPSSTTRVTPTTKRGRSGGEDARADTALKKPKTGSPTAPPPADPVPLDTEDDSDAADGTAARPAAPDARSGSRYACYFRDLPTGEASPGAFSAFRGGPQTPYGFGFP
Sequence of UniProt Q9GZZ6 (whole entry, looked up): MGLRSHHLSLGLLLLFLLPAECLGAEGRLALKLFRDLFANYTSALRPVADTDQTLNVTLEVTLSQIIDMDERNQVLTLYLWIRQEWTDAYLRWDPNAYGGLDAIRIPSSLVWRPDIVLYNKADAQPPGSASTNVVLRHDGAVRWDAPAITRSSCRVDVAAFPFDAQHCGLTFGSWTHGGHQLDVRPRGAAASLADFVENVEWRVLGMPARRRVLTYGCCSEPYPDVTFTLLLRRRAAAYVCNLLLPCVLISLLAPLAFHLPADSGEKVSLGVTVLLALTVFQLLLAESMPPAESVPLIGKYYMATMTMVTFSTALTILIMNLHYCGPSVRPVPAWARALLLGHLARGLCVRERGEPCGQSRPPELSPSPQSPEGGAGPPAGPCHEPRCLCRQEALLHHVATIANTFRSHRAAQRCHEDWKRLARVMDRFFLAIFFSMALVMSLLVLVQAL
Sequence of UniProt P62593 (whole entry, looked up): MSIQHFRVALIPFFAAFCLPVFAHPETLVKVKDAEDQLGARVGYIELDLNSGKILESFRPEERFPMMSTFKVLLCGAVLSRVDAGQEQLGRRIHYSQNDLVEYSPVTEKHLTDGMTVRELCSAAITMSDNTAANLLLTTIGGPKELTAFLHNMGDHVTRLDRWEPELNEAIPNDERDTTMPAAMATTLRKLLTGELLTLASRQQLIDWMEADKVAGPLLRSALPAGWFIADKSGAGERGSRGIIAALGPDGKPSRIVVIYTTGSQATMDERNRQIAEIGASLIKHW
Sequence of UniProt P01921 (whole entry, looked up): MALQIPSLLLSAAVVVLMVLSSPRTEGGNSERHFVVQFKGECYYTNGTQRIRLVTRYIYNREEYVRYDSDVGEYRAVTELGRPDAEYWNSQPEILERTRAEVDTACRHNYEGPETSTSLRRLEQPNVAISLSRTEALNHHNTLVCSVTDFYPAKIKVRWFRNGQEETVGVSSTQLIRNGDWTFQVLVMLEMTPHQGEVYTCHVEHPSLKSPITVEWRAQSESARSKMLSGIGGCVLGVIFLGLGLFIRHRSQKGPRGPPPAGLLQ
Sequence of UniProt P05181 (whole entry, looked up): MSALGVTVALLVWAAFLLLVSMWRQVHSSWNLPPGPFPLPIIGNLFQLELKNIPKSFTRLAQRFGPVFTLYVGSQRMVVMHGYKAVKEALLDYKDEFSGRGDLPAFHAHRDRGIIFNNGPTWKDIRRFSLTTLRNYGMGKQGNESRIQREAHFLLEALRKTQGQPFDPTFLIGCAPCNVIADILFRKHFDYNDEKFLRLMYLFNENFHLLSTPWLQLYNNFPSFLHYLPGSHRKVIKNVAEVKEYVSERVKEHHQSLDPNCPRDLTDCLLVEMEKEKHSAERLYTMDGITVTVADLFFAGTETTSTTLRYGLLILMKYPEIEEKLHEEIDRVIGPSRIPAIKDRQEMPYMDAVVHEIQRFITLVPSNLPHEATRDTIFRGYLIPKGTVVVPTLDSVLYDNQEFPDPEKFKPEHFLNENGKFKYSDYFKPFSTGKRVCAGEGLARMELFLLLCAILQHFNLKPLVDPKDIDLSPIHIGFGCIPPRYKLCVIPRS

Compound	target	assay	system	setting	IC50 [µM]
COc1ncccc1-c1cnn2ccc(N3CCN(C(=O)OC(C)C)CC3)nc12	Neuronal acetylcholine receptor subunit alpha-7 (CHRNA7, Homo sapiens, UniProt P36544)	liability screen	–	–	24
CCOc1ccc2nc3cc(N)ccc3c(N)c2c1	cas9	linear substrate	Streptococcus pyogenes	–	20 to 50
Cc1ccc(S(=O)(=O)Oc2ccc3c(c2)Oc2nc4c(c(N)c2C3c2cccc(Br)c2)CCCC4)cc1 (stereo not shown)	ACHE	enzyme activity, inhibitor	–	–	9.36
O=C(O[C@@H]1Cc2c(O)cc(O)cc2O[C@@H]1c1cc(O)c(O)c(O)c1)c1cc(O)c(O)c(O)c1	cas9	linear substrate	Streptococcus pyogenes	–	20 to 50
Cc1c2ccncc2c(C)c2c1[nH]c1ccccc12	Beta-lactamase TEM (bla, Escherichia coli, UniProt P62593)	inhibitor	–	–	> 30
COC(=O)C1=C(C)NC(C)=C(C(=O)OCCN(C)Cc2ccccc2)C1c1cccc([N+](=O)[O-])c1 (stereo not shown)	Bile acid receptor (NR1H4, Homo sapiens, UniProt Q96RI1)	SRC2 coactivator recruitment	–	with: chenodeoxycholic acid 50 µM	1.59 ± 0.57
OC(CCCN1CCCCC1)(c1ccccc1)c1ccccc1	Neuronal acetylcholine receptor; alpha9/alpha10 (Homo sapiens, UniProt Q9GZZ6+Q9UGM1)	inhibitor	–	–	0.44 ± 0.013
Nc1c2c(nc3c1C(c1ccc(Cl)c(Cl)c1)c1ccc(O)cc1O3)CCCC2 (stereo not shown)	ACHE	enzyme activity, inhibitor	–	–	5.31
COc1ccc(CCNCC(O)COc2cccc(C)c2)cc1OC (stereo not shown)	Sodium-dependent serotonin transporter (SLC6A4, Homo sapiens, UniProt P31645)	inhibitor	–	–	3
CCN1CCN(Cc2ccc(Nc3nc4ccc(Oc5ccnc(NC(=O)CCN(C)C)c5)cc4n3C)cc2C(F)(F)F)CC1	Protein kinase 6 (Plasmodium falciparum, UniProt Q8IDW1)	enzyme activity, inhibitor	–	–	2.9 ± 0.5
Oc1ccc(-c2cccc(Cl)c2)cc1Cl	Aryl hydrocarbon receptor (AHR, Homo sapiens, UniProt P35869)	reporter gene, antagonist	AZ-AHR cells	24 h, with: TCDD 4.5 nM	20
CC(C)C[C@H](NC(=O)[C@H](Cc1ccc(O)cc1)NC(=O)CNC(=O)[C@@H](N)C(C)C)C(=O)N[C@@H](CCC(N)=O)C(=O)N1CCC[C@H]1C(=O)N[C@@H](CCCNC(=N)N)C(=O)N[C@H](C(=O)N[C@@H](Cc1ccccc1)C(=O)O)[C@@H](C)O	HLA class I histocompatibility antigen, B alpha chain allele B*18:01	peptide-MHC binding, radioligand competition binding	–	–	0.707
COc1cc(Nc2ncc(F)c(Nc3ccc4c(n3)NC(=O)C(C)(C)O4)n2)cc(OC)c1OC	Tryptase	–	–	–	> 10
C[C@H]1CN(c2n[nH]c3nc(N[C@H]4CC[C@H](NS(=O)(=O)CCC(F)(F)F)CC4)ncc23)CCO1	Death-associated protein kinase 3 (DAPK3, Homo sapiens, UniProt O43293)	biochemical	–	–	≥ 20
O=C(O)c1cccc(C(=O)O)n1	4-hydroxy-tetrahydrodipicolinate synthase (dapA, Escherichia coli K-12, UniProt P0A6L2)	enzyme activity, inhibitor	–	25 °C	15600
CCCCCCCCCC(=O)N[C@H]1CCOC1=O	expR (Pectobacterium carotovorum, UniProt Q4KS34)	–	–	–	0.5
CC(C)C[C@H](NC(=O)[C@@H](N)CCC(=O)O)C(=O)N1CCC[C@H]1C(=O)N[C@@H](CC(=O)O)C(=O)N[C@@H](CCC(=O)O)C(=O)N[C@@H](Cc1ccccc1)C(=O)N[C@H](C(=O)N[C@H](C(=O)N[C@H](C(=O)O)C(C)C)C(C)C)C(C)C	HLA class I histocompatibility antigen, B alpha chain allele B*18:01	peptide-MHC binding, radioligand competition binding	–	–	> 70
C[C@H](CCC(=O)O)[C@H]1CC[C@H]2[C@@H]3[C@@H](O)C[C@@H]4C[C@H](O)CC[C@]4(C)[C@H]3CC[C@]12C	Gag polyprotein, nucleocapsid protein p7 (gag, Human immunodeficiency virus type 1 group M subtype B, UniProt P04591)	NCp7-RNA binding, AlphaScreen	HIV-1	with: 25 nM NCp7, 12.5 nM RNA	2.46
CCC(C(=O)Nc1cc(NC2CCNCC2)ccc1C)n1cc(Cl)cc2nc(SCc3ccc(F)cc3)nc1-2 (stereo not shown)	Calpain-1 catalytic subunit (CAPN1, Homo sapiens, UniProt P07384)	enzyme activity	–	–	> 100
C[C@@H](NC(=O)[C@@H](N)Cc1ccc(O)cc1)C(=O)NCC(=O)N[C@@H](Cc1ccc(Cl)cc1)C(=O)N(C)CCC[C@@]1(c2ccc(F)cc2)OCc2cc(C#N)ccc21	Delta-type opioid receptor (OPRD1, Homo sapiens, UniProt P41143)	–	–	–	0.00339
O=c1c2ccccc2[nH]c(=S)n1-c1ccccc1	Xanthine dehydrogenase/oxidase (XDH, Bos taurus, UniProt P80457)	enzyme activity, inhibitor	–	–	151 ± 4.95
CC(C)C[C@H](NC(=O)[C@@H](N)CCC(=O)O)C(=O)N1CCC[C@H]1C(=O)N[C@@H](CC(=O)O)C(=O)N[C@@H](CCC(=O)O)C(=O)N[C@@H](Cc1ccccc1)C(=O)N[C@H](C(=O)N[C@H](C(=O)N[C@H](C(=O)N[C@H](C(=O)N[C@H](C(=O)O)C(C)C)[C@@H](C)O)C(C)C)C(C)C)C(C)C	HLA class I histocompatibility antigen, B alpha chain allele B*18:01	peptide-MHC binding, radioligand competition binding	–	–	1.13
N[C@@H](Cc1cc(I)c(O)c(I)c1)C(=O)O	Cytochrome P450 2E1 (CYP2E1, Homo sapiens, UniProt P05181)	p-nitrophenol hydroxylation, inhibitor	baculosomes	10 min, with additive 1 µM	4.1
CC[C@H](C)[C@H](NC(=O)[C@H](CC(=O)O)NC(=O)[C@H](CCCNC(=N)N)NC(=O)CN)C(=O)N[C@@H](Cc1c[nH]cn1)C(=O)N[C@@H](Cc1ccc(O)cc1)C(=O)N[C@@H](CCC(N)=O)C(=O)N[C@@H](CCC(=O)O)C(=O)NCC(=O)N[C@H](C(=O)N1CCC[C@H]1C(=O)N[C@@H](CO)C(=O)N[C@@H](Cc1ccc(O)cc1)C(=O)N[C@@H](CCC(=O)O)C(=O)N[C@@H](CCC(N)=O)C(=O)N[C@H](C(=O)O)C(C)C)C(C)C	H2-Ab1/H2-Aa (Mus musculus, UniProt P01921+P04228)	binding, radioligand competition	–	2 d, with: radiolabeled peptide 1 nM	0.606
O=C(Nc1ccccc1-c1cn2c(CN3CCNCC3)csc2n1)c1cnc2ccccc2n1	cas9	linear substrate	Streptococcus pyogenes	–	20 to 50
CN(C)C(=O)C(CCN1CCC(O)(c2ccc(Cl)cc2)CC1)(c1ccccc1)c1ccccc1	Calcium-activated potassium channel subunit alpha-1, with LRRC26 γ1 subunit (KCNMA1, Homo sapiens, UniProt Q12791)	BK channel conductance, inhibitor, inside-out patch clamp	–	BKα/γ1, Vm 80 mV, nominally Ca2+-free	2.06 ± 0.35
CS[C@H]1SC[C@H]2C(=O)N(C)[C@@H](C(C)C)C(=O)OC[C@@H](NC(=O)c3cnc4ccccc4n3)C(=O)N[C@@H](C)C(=O)N(C)[C@@H]1C(=O)N(C)[C@@H](C(C)C)C(=O)OC[C@@H](NC(=O)c1cnc3ccccc3n1)C(=O)N[C@@H](C)C(=O)N2C	cas9	linear substrate	Streptococcus pyogenes	–	100 to 200
CCC(C(=O)Nc1sc(C(N)=O)c(C)c1C(=O)OC)c1ccc(F)cc1 (stereo not shown)	DNA polymerase processivity factor, with UL42 processivity factor (Human herpesvirus 1, UniProt P10226)	inhibitor	–	–	> 100
